{"data": "Assay results from different studies", "note": "Each line is one published result; not all experiments were run side by side. ± marks the error that the study gave."}
{"SMILES": "CSCC[C@H](N)C(=O)N1CCC[C@H]1C(=O)NCC(=O)NCC(=O)O", "assay": "diketopiperazine formation, Arrhenius plot, ESI-MS", "test system": "1-propanol", "conditions": "70, 80, 90 °C, 0.5% acetic acid", "quantity": "activation energy", "result": "22.5 ± 3.35 kcal/mol"}
{"SMILES": "C=C(c1ncc(C(=O)O)cn1)c1cc2c(cc1C)C(C)(C)CCC2(C)C", "assay": "RNA sequencing, item: Angptl4 mRNA", "test system": "rat, brain", "conditions": "dose not given, 24 h, single dose", "how to read": "reference: vehicle", "quantity": "log2 fold change", "result": -1.11}
{"SMILES": "O=C(N[C@@H](Cc1ccc(OCCCCC2CCNCC2)cc1)C(=O)O)c1nc2ccccc2o1", "assay": "platelet aggregation, inhibitor, impedance aggregometry", "test system": "human donors, diluted whole blood", "conditions": "5 min preincubation, 37 °C, together with: ADP 20 µM", "quantity": "IC50", "result": "0.0917 ± 0.0096 µM"}
{"SMILES": "CCCC[C@H](NC(=O)[C@@H](NC(=O)[C@H](CC(=O)O)NC(=O)[C@H](CCC(N)=O)NC(=O)[C@H](CC(C)C)NC(=O)[C@H](CC(C)C)NC(=O)[C@H](CCCN)NC(=O)[C@H](CCCNC(=N)N)NC(=O)[C@H](C)NC(=O)[C@H](CO)NC(=O)[C@H](CC(C)C)NC(=O)[C@H](CCC(N)=O)NC(=O)[C@H](CC)NC(=O)[C@H](CC(C)C)NC(=O)[C@@H](NC(=O)[C@H](CCCN)NC(=O)[C@H](CCCNC(=N)N)NC(=O)[C@H](Cc1ccc(O)cc1)NC(=O)[C@H](CO)NC(=O)[C@H](CCC(N)=O)NC(=O)[C@@H](NC(=O)[C@H](Cc1ccccc1)NC(=O)[C@@H](NC(=O)[C@H](C)NC(=O)[C@H](CC(=O)O)NC(=O)[C@@H](C)NC(=O)[C@H](Cc1ccc(O)cc1)NC)[C@@H](C)CC)[C@@H](C)O)C(C)C)[C@@H](C)CC)C(=O)N[C@@H](CC(=O)O)C(=O)NCCCCNC(=N)N", "assay": "GH release", "test system": "male rat, serum", "conditions": "subcutaneous, dose not given, 15 min", "how to read": "reference: GHRH(1-29)NH2", "quantity": "relative potency", "result": 80}
{"SMILES": "Cc1cc(O)c(C=O)c2c1C(=O)Oc1c(CO)c(O)c3c(c1O2)C(O)OC3=O (stereo not shown)", "test system": "rat, male, streptozotocin-induced diabetes, cauda epididymis", "conditions": "10 mg/kg, 9 weeks", "quantity": "sperm viability", "result": "79.8 ± 2.4%"}
{"SMILES": "CCCC[C@H](NC(=O)[C@@H](NC(=O)[C@H](CC(=O)O)NC(=O)[C@H](CCC(N)=O)NC(=O)[C@H](CC(C)C)NC(=O)[C@H](CC(C)C)NC(=O)[C@H](CCCN)NC(=O)[C@H](CCCNC(=N)N)NC(=O)[C@H](C)NC(=O)[C@H](CO)NC(=O)[C@H](CC(C)C)NC(=O)[C@H](CCC(N)=O)NC(=O)[C@H](CC)NC(=O)[C@H](CC(C)C)NC(=O)[C@@H](NC(=O)[C@H](CCCN)NC(=O)[C@H](CCCNC(=N)N)NC(=O)[C@H](Cc1ccc(O)cc1)NC(=O)[C@H](CO)NC(=O)[C@H](CCC(N)=O)NC(=O)[C@@H](NC(=O)[C@H](Cc1ccccc1)NC(=O)[C@@H](NC(=O)[C@H](C)NC(=O)[C@H](CC(=O)O)NC(=O)[C@@H](C)NC(=O)[C@H](Cc1ccc(O)cc1)NC)[C@@H](C)CC)[C@@H](C)O)C(C)C)[C@@H](C)CC)C(=O)N[C@@H](CC(=O)O)C(=O)N[C@@H](CCCNC(=N)N)C(=O)NCC", "assay": "GH release", "test system": "rat, male, serum", "conditions": "subcutaneous, dose not given, 15 and 30 min", "how to read": "reference: reference GHRH agonist JI-38", "quantity": "relative potency", "result": "1 to 4 fold"}
{"SMILES": "COc1ccc2c(c1)c(CC(=O)OCC(=O)c1ccccc1)c(C)n2C(=O)c1ccc(Cl)cc1", "assay": "hot plate test", "test system": "BALB/c mice", "conditions": "75 mg/kg, 60 min", "quantity": "latency of nociceptive response", "result": "14.7 ± 1.11 s"}
{"SMILES": "CC(=O)[O-].O.O.[O-]c1ccc(Br)cc1C=NCCN1CCOCC1.[Zn+2]", "assay": "superoxide scavenging", "conditions": "240 µM", "quantity": "inhibition", "result": "55.5%"}
{"SMILES": "CCCC[C@H](NC(=O)[C@@H](NC(=O)[C@H](CC(=O)O)NC(=O)[C@H](CCC(N)=O)NC(=O)[C@H](CC(C)C)NC(=O)[C@H](CC(C)C)NC(=O)[C@H](CCCN)NC(=O)[C@H](CCCNC(=N)N)NC(=O)[C@H](C)NC(=O)[C@H](CO)NC(=O)[C@H](CC(C)C)NC(=O)[C@H](CCC(N)=O)NC(=O)[C@H](CC)NC(=O)[C@H](CC(C)C)NC(=O)[C@@H](NC(=O)[C@H](CCCN)NC(=O)[C@H](CCCNC(=N)N)NC(=O)[C@H](Cc1ccc(O)cc1)NC(=O)[C@H](CO)NC(=O)[C@H](CCC(N)=O)NC(=O)[C@@H](NC(=O)[C@H](Cc1ccccc1)NC(=O)[C@@H](NC(=O)[C@H](C)NC(=O)[C@H](CC(=O)O)NC(=O)[C@@H](C)NC(=O)[C@H](Cc1ccc(O)cc1)NC)[C@@H](C)CC)[C@@H](C)O)C(C)C)[C@@H](C)CC)C(=O)N[C@@H](CC(=O)O)C(=O)N[C@@H](CCCNC(=N)N)C(=O)NC", "assay": "GH release", "test system": "male rat, serum", "conditions": "subcutaneous, dose not given, 15 min", "how to read": "reference: GHRH(1-29)NH2", "quantity": "relative potency", "result": 224}
{"SMILES": "Sc1nnc(-c2ccccc2)o1", "assay": "H2O2 scavenging", "quantity": "IC50", "result": "121 ± 4.4 µM"}
{"note": "A few entries again:"}
{"SMILES": "O=C(N[C@@H](Cc1ccc(OCCCCC2CCNCC2)cc1)C(=O)O)c1nc2ccccc2o1", "assay": "platelet aggregation, inhibitor, impedance aggregometry", "test system": "human donors, diluted whole blood", "conditions": "5 min preincubation, 37 °C, together with: ADP 20 µM", "quantity": "IC50", "result": "0.0917 ± 0.0096 µM"}
